{"data": "Measurements from different studies", "lasR": "Transcriptional activator protein LasR (lasR, Pseudomonas aeruginosa, UniProt P25084)", "Uncharacterized hydrolase SAUSA300_2518": "Uncharacterized hydrolase SAUSA300_2518 (Staphylococcus aureus, UniProt Q2FDS6)", "note": "Compare with care: the assays were run in different laboratories. Several values in a cell are separate wells, animals, samples, runs or records. ± gives the spread as reported."}
{"Structure (SMILES)": "CN(C)[C@H]1C[C@@]23CC[C@@]4(O2)C(=CC[C@]2(C)[C@@H](c5ccc6ccncc6c5)CC[C@H]24)C=C3[C@@H](O)[C@@H]1O", "target": "MAP3K2 (Homo sapiens, UniProt Q9Y2U5)", "assay": "ATP probe labelling, inhibitor, KiNativ profiling", "setting": "0.1 µM", "inhibition": "-15.5%"}
{"Structure (SMILES)": "N[C@H](C(=O)N1CCCC1)C1CCN(c2nccc3c(-c4ncc(Cl)cc4Cl)cccc23)CC1", "target": "neuronal nicotinic acetylcholine receptor", "assay": "binding, radioligand binding", "setting": "10 µM", "inhibition": "-2%"}
{"Structure (SMILES)": "CC(=O)NC[C@@H]1[C@@H](O)C[C@H]2[C@H](O)C[C@@H](CO)N12", "target": "β-N-acetylglucosaminidase", "assay": "enzyme activity, inhibitor, colorimetric", "system": "Canavalia ensiformis", "setting": "2.14 nM, added: p-nitrophenyl GlcNAc substrate", "inhibition": "20.3% and 14.7%"}
{"Structure (SMILES)": "CS(C)(=O)=Nc1ccc(-c2ccc(-c3nc4cc(O[C@@H]5CO[C@H]6[C@@H]5OC[C@H]6O)[nH]c4cc3F)cc2)cc1", "target": "MTOR (Homo sapiens, UniProt P42345)", "assay": "enzyme activity, inhibitor", "setting": "10 µM", "inhibition": "-17%"}
{"Structure (SMILES)": "O=C(NCc1cc(Br)cc(Br)c1OC(=O)c1ccccc1[N+](=O)[O-])c1ccccc1Cl", "target": "lasR", "assay": "reporter gene, antagonist", "system": "Escherichia coli JLD271", "setting": "10 µM, pSC11 and pJN105L plasmids, added: OdDHL 2 nM", "inhibition": "-112%"}
{"Structure (SMILES)": "CC(C)=CCc1c(O)ccc(-c2coc3cc(O)cc(O)c3c2=O)c1O", "target": "PDE4D (Homo sapiens, UniProt Q08499)", "assay": "enzyme activity, inhibitor, radiometric", "setting": "5 µM", "inhibition": "63.7%"}
{"Structure (SMILES)": "COc1ccc(F)cc1S(=O)(=O)Nc1cnc2c(c1)C(=O)NCCO2", "target": "Cathepsin G (CTSG, Homo sapiens, UniProt P08311)", "assay": "enzyme activity, inhibitor", "setting": "10 µM", "inhibition": "-6%"}
{"Structure (SMILES)": "CC(C)CC1NCCc2cc(O)c(O)cc21 (stereo not shown)", "target": "tyrosinase", "assay": "enzyme activity, inhibitor", "setting": "100 µM, added: levodopa", "inhibition": "15.4 ± 1.58%"}
{"Structure (SMILES)": "C[C@H](NCc1ccc(-c2ccc(C(F)(F)F)cc2)cc1)C(N)=O", "target": "DYRK1B (Homo sapiens, UniProt Q9Y463)", "assay": "cell-free assay, competition with immobilised ligand", "setting": "1 µM", "inhibition": "3%"}
{"Structure (SMILES)": "CC(C)[C@H]1NC(=O)C[C@H]2/C=C/CCSSC[C@@H](NC1=O)C(=O)N[C@H](Cc1cccc3ccccc13)C(=O)NCC(=O)O2", "target": "NUAK2 (Homo sapiens, UniProt Q9H093)", "assay": "enzyme activity, inhibitor", "setting": "10 µM", "inhibition": "-1.5%"}
{"Structure (SMILES)": "N#Cc1ccc(N2N=C3c4ccc(C(=O)O)cc4CCC3C2C2CCCC2)cc1Cl (stereo not shown)", "target": "Histone-lysine N-methyltransferase 2B, complex (KMT2B, Homo sapiens, UniProt Q9UMN6)", "assay": "enzyme activity", "setting": "10 µM", "inhibition": "8%"}
{"Structure (SMILES)": "O=C(O)c1ccccc1/C=N/Nc1nc(-c2ccccc2Cl)cs1", "target": "SRM", "assay": "enzyme activity", "setting": "1 µM", "inhibition": "11.9%"}
{"Structure (SMILES)": "O=C1C(Nc2ncccc2[N+](=O)[O-])CN1c1ccc(F)cc1 (stereo not shown)", "target": "Uncharacterized hydrolase SAUSA300_2518", "assay": "enzyme activity, inhibitor", "setting": "50 µM", "inhibition": "33%"}
{"Structure (SMILES)": "O=C(CN1CN(c2ccccc2)C2(CCN(C(=O)c3cnc4[nH]ncc4c3)CC2)C1=O)NCC(F)(F)F", "target": "MAP2K7 (Homo sapiens, UniProt O14733)", "assay": "inhibitor", "setting": "concentration not given", "inhibition": "< 50%"}
{"Structure (SMILES)": "Cc1nc(C)c(F)c(N2CCC(C3NC(=O)C3(C)C)CC2)n1 (stereo not shown)", "target": "Uncharacterized hydrolase SAUSA300_2518", "assay": "enzyme activity, inhibitor", "setting": "50 µM", "inhibition": "0.3%"}
{"Structure (SMILES)": "C=CC(=O)Nc1cc(-c2nn(C3CCC(N4CCN(C(C)=O)CC4)CC3)c3ncnc(N)c23)ccc1Oc1ccccc1 (stereo not shown)", "target": "MAP3K20 (Homo sapiens, UniProt Q9NYL2)", "assay": "inhibitor, KiNativ profiling", "system": "biochemical", "setting": "2 µM", "inhibition": "15.7%"}
{"Structure (SMILES)": "O=C(Nc1ccccc1NC(=O)c1cccc(Cl)c1)c1cccc(Cl)c1", "target": "lasR", "assay": "reporter gene, antagonist", "system": "Pseudomonas aeruginosa PAO-JP2", "setting": "100 µM, plasI-LVAgfp reporter, added: OdDHL 150 nM", "inhibition": "79%"}
{"Structure (SMILES)": "CCOC(=O)[C@](CC)(CCCSCCOCCOCCNC(=O)c1ccc(-c2c3ccc(=N)c(S(=O)(=O)O)c-3oc3c(S(=O)(=O)O)c(N)ccc23)c(C(=O)O)c1)NC(=O)c1ccc(C2CC2)c(Cc2ccc(F)cc2)n1", "target": "central benzodiazepine site", "assay": "specific binding, agonist radioligand binding", "setting": "10 µM", "inhibition": "-1%"}
{"Structure (SMILES)": "O=C(CCCCCCCCCN=C=S)CC(=O)N[C@H]1CCOC1=O", "target": "lasR", "assay": "reporter gene, antagonist", "system": "Escherichia coli JLD271", "setting": "10 µM, pSC11 and pJN105L plasmids, added: OdDHL 2 nM", "inhibition": "-72%"}
{"Structure (SMILES)": "COc1ccc(CN(CCC(c2ccccc2)c2ccc(OC(C)C)cc2)C(=O)CCl)cc1OC (stereo not shown)", "target": "GSTO1 (Homo sapiens, UniProt P78417)", "setting": "5 µM", "inhibition": "77%"}
{"Structure (SMILES)": "O=C(CCc1ccc(Br)cc1)N[C@H]1CCOC1=O", "target": "lasR", "assay": "reporter gene, antagonist", "system": "Pseudomonas aeruginosa PAO-JP2", "setting": "100 µM, plasI-LVAgfp reporter, added: OdDHL 150 nM", "inhibition": "63%"}
{"Structure (SMILES)": "CN(/N=C/c1ccccc1C(=O)O)c1nc(-c2ccccc2Cl)cs1", "target": "FGFR2 (Homo sapiens, UniProt P21802)", "assay": "kinase activity", "setting": "1 µM, mean", "inhibition": "1.39%"}
